Measurements pooled from the literature.
Lines come from different studies, so protocols differ. ± marks the error that the study gave.
Kallikrein-6: Kallikrein-6 (Homo sapiens, UniProt Q92876)
TMPRSS2: Transmembrane protease serine 2 (TMPRSS2, Homo sapiens, UniProt O15393)
FGFR1: Fibroblast growth factor receptor 1 (FGFR1, Homo sapiens, UniProt P11362)
AGTR1: Type-1 angiotensin II receptor (AGTR1, Homo sapiens, UniProt P30556)
RPA1: Replication protein A 70 kDa DNA-binding subunit (RPA1, Homo sapiens, UniProt P27694)

CC(=O)N[C@@H]1[C@@H](O)[C@H](O)[C@@H](CO)N[C@@H]1COP(=O)(O)OP(=O)(O)OC/C=C(/C)CC/C=C(\C)CCC=C(C)C
inhibition (Peptidoglycan glycosyltransferase (Clostridioides difficile, UniProt Q189X7); transglycosylase activity, HPLC; 500 µM, added: NBD-lipid II): 50%

NCc1ccc(NC(=O)c2ccc3ccccc3c2O)cc1
inhibition (Kallikrein-6; enzyme activity, inhibitor; 10 µM): 80%

N=C(N)c1ccc(/N=N/c2cc(/C=C/c3ccccc3)ccc2O)cc1
inhibition (Mycosin-1 (Mycolicibacterium thermoresistibile, UniProt G7CDQ2); protease activity, inhibitor, quenched fluorescent peptide; 150 µM, added: 20 µM fluorogenic peptide substrate; relative to: DMSO control): 68.5%

CC(C)(C)CCN1C[C@@H]2[C@@H](CNC(=O)c3cc(Cl)cc(Cl)c3)[C@@H]2C1.Cl
inhibition (Voltage-dependent L-type calcium channel subunit alpha-1F, exon 47 deletion isoform (Homo sapiens, UniProt O60840); calcium current, whole-cell patch clamp; HEK-293T cells; 50 nM): inhibited

NCc1ccc(NC(=O)c2ncccc2O)cc1
inhibition (TMPRSS2; enzyme activity, inhibitor; 10 µM, added: Boc-QAR-AMC): < 20%

CCc1nc2ccc(Cl)cn2c1C(=O)NCc1ccc2oc(-c3ccc(OC(F)(F)F)cc3)nc2c1
inhibition (MT-CYB (Bos taurus, UniProt P00157); oxygen consumption; bovine heart submitochondrial particles; 1 µM): no inhibition

CN(C1COC1)C(C)(C)/C=C(\C#N)C(=O)N1CCC[C@H]1Cn1nc(-c2ccc(Oc3ccccc3)cc2F)c2c(N)ncnc21
inhibition (Tyrosine-protein kinase BTK (BTK, Homo sapiens, UniProt Q06187); 0.1 µM, mean): > 90%

Fc1ccc(F)c(Cc2c[nH]c3ncc(C(F)(F)F)cc23)c1
inhibition (FGFR1; enzyme activity, inhibitor; 0.1 µM): 29%

Cc1cc2c(NC(=O)N[C@@H]3CC(C)(C)Oc4cc(C(F)(F)F)ccc43)c(C)ccc2cn1
inhibition (Transient receptor potential cation channel subfamily V member 1 (Trpv1, Rattus norvegicus, UniProt O35433); acid-evoked calcium influx, antagonist; HEK293, rat; 11.25 µM, pH 5): 99.7 ± 0.1%

O=C(O)c1ccc2nc(-c3ccc(OCC(O)COc4ccc(-c5nc6ccc(C(=O)O)cc6[nH]5)cc4)cc3)[nH]c2c1
inhibition (Dihydrofolate reductase (DHFR, Homo sapiens, UniProt P00374); enzyme activity; concentration not given): no inhibition

CCCCOC(=O)NS(=O)(=O)c1sc(CC(C)C)cc1-c1cccc2c1CCN(C(C)=O)C2
inhibition (AGTR1; ligand displacement, radioligand; 10 µM, cell membranes): 22%

O=C(c1ccncc1)N1N=C2/C(=C/c3ccc(Cl)cc3)CCCC2C1c1ccc(Cl)cc1 (centres unmarked)
inhibition (Prostaglandin G/H synthase 2 (PTGS2, Homo sapiens, UniProt P35354); enzyme activity; concentration not given): 80.2%

NCc1ccc(NC(=O)c2c[nH]c3ccccc3c2=O)cc1
inhibition (TMPRSS2; enzyme activity, inhibitor; 10 µM, added: Boc-QAR-AMC): < 20%

COc1cccc(Cc2c[nH]c3ncc(C(F)(F)F)cc23)c1
inhibition (FGFR1; enzyme activity, inhibitor; 1 µM): 91%

COc1cc(C(=O)NC2CCC(N3CCN(CC4CCC5(CCCC5)C4)CC3)CC2)c(F)cc1Nc1ncc2c(n1)N(C1CCCC1(F)F)CC(F)(F)C(=O)N2C (centres unmarked)
inhibition (Ephrin type-A receptor 7 (EPHA7, Homo sapiens, UniProt Q15375); cell-free assay, TR-FRET; 10 µM): 0.3%

COc1cc(Cc2c[nH]c3ncc(C(F)(F)F)cc23)cc(OC)c1
inhibition (FGFR1; enzyme activity, inhibitor; 0.1 µM): 95%

CC(C)C1=CCC2C(=C1)CCC1C(C)(C(=O)O)CCCC21C (centres unmarked)
inhibition (RPA1; helix destabilization, EMSA dsDNA probe; 200 µM): no effect

CCc1cccc(Nc2c(C(N)=O)cnc3c(C)cc(-c4ccc5cnn(C)c5c4)cc23)c1
inhibition (Class 1 phosphodiesterase PDEB1 (PDEB1, Trypanosoma brucei, UniProt Q8WQX9); enzyme activity, inhibitor; 10 µM): 67%

Nc1n[nH]c(=O)c2nn(-c3ccccc3)c(-c3cc4ccccc4o3)c12
inhibition (FGFR1; enzyme activity, inhibitor, ELISA; 0.1 µM): -11.8%

CCCCOC(=O)NS(=O)(=O)c1sc(CC(C)C)cc1-c1cc(Cn2ccnc2)ccc1F
inhibition (AGTR1; ligand displacement, radioligand; 10 µM, cell membranes): 16%

COc1cc2ccc(C(=O)Nc3ccc(CN)cc3)c(O)c2cc1OC
inhibition (TMPRSS2; enzyme activity, inhibitor; 10 µM, added: Boc-QAR-AMC): < 20%

OC(c1ccc(C(F)(F)F)cc1)c1c[nH]c2ncc(C(F)(F)F)cc12 (centres unmarked)
inhibition (FGFR1; enzyme activity, inhibitor; 1 µM): 25%

CC(C)=C1C=C2CCC3C(C)(C(=O)O)CCCC3(C)C2CC1 (centres unmarked)
inhibition (RPA1; helix destabilization, EMSA dsDNA probe; 200 µM): no effect

FC(F)(F)Oc1cccc(Cc2c[nH]c3ncc(C(F)(F)F)cc23)c1
inhibition (FGFR1; enzyme activity, inhibitor; 0.1 µM): 15%

CC(=O)c1cnc(N)nc1N1CC[C@H]1c1nn2ccc(Cl)c2c(=O)n1-c1ccccc1
inhibition (Potassium/sodium hyperpolarization-activated cyclic nucleotide-gated channel 4 (HCN4, Homo sapiens, UniProt Q9Y3Q4); ion current, inhibitor; 3 µM): < 10%

COc1ccccc1-c1cc(C(=O)Nc2ccc(S(=O)(=O)Nc3cc(C)on3)cc2)c2ccccc2n1
inhibition (Peptidyl-prolyl cis-trans isomerase A (PPIA, Homo sapiens, UniProt P62937); enzyme activity, inhibitor; 10 µM): 26.5%

CCn1c2ccccc2c2cc(CNCCCn3cnnc3)ccc21
inhibition (D(2) dopamine receptor (DRD2, Homo sapiens, UniProt P14416); cell-free assay, inhibitor; 10 µM): 30.5%

N#Cc1c(NC(=O)c2ccc(Cl)cc2)sc2c1CCC(c1ccccc1)C2 (centres unmarked)
inhibition (L-lactate dehydrogenase A chain (LDHA, Homo sapiens, UniProt P00338); enzyme activity, inhibitor, fluorescence; 100 µg/mL): 27.5%

CNS(=O)(=O)c1cc([N+](=O)[O-])ccc1NCCC(C)(C)C
inhibition (Solute carrier family 12 member 2 (SLC12A2, Homo sapiens, UniProt P55011); chloride influx; HEK293 transfected with SLC12A2; 100 µM; relative to: DMSO): 28.6 ± 4.3%

O=[N+]([O-])c1ccc(/N=N/c2ccc(O)c(O)c2)cc1
inhibition (Semaphorin-3C, with neuropilin-1 (SEMA3C, Homo sapiens, UniProt Q99985); SEMA3C binding, inhibitor; 25 µM, added: SEMA3C; relative to: DMSO): > 50%

Oc1c(C(Nc2nc3ccccc3s2)c2ccccc2OCc2ccccc2)ccc2cccnc12 (centres unmarked)
inhibition (Genome polyprotein, NS2B-NS3 protease (GP1, West Nile virus, UniProt Q9Q6P4); enzyme activity, inhibitor; 25 µM, 0.1% CHAPS, added: tetrapeptide substrate): 83.7 ± 1.31%

Cc1ccc(O)c(C(=O)Nc2ccc(CN)cc2)c1
inhibition (Kallikrein-6; enzyme activity, inhibitor; 10 µM): 25%

O=C1N[C@@H](CO)C[C@H](O)c2ccccc21 (relative stereo)
inhibition (Protein mono-ADP-ribosyltransferase PARP16 (PARP16, Homo sapiens, UniProt Q8N5Y8); enzyme activity, inhibitor; 10 µM): 95%

Cc1nc2ccc(Cc3c[nH]c4ncc(C(F)(F)F)cc34)cc2o1
inhibition (FGFR1; enzyme activity, inhibitor; 0.1 µM): 27%

NCc1ccc(NC(=O)c2cc3ccccc3[nH]2)cc1
inhibition (Transmembrane protease serine 11D (TMPRSS11D, Homo sapiens, UniProt O60235); enzyme activity, fluorogenic substrate; 10 µM, added: Boc-VPR-AMC): < 20%

Some of these lines once more:
COc1ccccc1-c1cc(C(=O)Nc2ccc(S(=O)(=O)Nc3cc(C)on3)cc2)c2ccccc2n1
inhibition (Peptidyl-prolyl cis-trans isomerase A (PPIA, Homo sapiens, UniProt P62937); enzyme activity, inhibitor; 10 µM): 26.5%

COc1cccc(Cc2c[nH]c3ncc(C(F)(F)F)cc23)c1
inhibition (FGFR1; enzyme activity, inhibitor; 1 µM): 91%

CCCCOC(=O)NS(=O)(=O)c1sc(CC(C)C)cc1-c1cc(Cn2ccnc2)ccc1F
inhibition (AGTR1; ligand displacement, radioligand; 10 µM, cell membranes): 16%

O=C(c1ccncc1)N1N=C2/C(=C/c3ccc(Cl)cc3)CCCC2C1c1ccc(Cl)cc1 (centres unmarked)
inhibition (Prostaglandin G/H synthase 2 (PTGS2, Homo sapiens, UniProt P35354); enzyme activity; concentration not given): 80.2%
